# Assay results from different studies.
# Protocols differ between the studies behind these lines.
# CTSL: Procathepsin L (CTSL, Homo sapiens, UniProt P07711)
# UniProt P07711, sequence (whole entry, looked up): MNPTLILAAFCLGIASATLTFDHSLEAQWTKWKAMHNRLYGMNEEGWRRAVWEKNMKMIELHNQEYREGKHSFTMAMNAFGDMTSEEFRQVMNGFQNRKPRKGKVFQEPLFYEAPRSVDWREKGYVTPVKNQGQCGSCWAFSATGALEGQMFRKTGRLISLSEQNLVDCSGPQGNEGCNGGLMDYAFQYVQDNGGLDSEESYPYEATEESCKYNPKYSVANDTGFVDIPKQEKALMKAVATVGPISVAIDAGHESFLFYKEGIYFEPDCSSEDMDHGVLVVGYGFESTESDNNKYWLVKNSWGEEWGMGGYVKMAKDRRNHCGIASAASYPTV
# DRD3: D(3) dopamine receptor (DRD3, Homo sapiens, UniProt P35462)
# UniProt P35462, sequence (whole entry, looked up): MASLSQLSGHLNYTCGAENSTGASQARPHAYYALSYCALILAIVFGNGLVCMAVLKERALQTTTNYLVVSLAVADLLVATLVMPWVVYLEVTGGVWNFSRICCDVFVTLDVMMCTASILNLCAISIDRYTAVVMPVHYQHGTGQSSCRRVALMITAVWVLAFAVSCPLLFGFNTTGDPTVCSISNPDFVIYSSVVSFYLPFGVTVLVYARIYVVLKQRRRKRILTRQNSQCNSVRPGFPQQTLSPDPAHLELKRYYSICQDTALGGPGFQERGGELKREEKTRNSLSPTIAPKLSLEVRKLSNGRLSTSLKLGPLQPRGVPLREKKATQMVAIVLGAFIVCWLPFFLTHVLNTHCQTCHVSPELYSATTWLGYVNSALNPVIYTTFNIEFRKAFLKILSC
# UniProt Q86UX6, sequence (whole entry, looked up): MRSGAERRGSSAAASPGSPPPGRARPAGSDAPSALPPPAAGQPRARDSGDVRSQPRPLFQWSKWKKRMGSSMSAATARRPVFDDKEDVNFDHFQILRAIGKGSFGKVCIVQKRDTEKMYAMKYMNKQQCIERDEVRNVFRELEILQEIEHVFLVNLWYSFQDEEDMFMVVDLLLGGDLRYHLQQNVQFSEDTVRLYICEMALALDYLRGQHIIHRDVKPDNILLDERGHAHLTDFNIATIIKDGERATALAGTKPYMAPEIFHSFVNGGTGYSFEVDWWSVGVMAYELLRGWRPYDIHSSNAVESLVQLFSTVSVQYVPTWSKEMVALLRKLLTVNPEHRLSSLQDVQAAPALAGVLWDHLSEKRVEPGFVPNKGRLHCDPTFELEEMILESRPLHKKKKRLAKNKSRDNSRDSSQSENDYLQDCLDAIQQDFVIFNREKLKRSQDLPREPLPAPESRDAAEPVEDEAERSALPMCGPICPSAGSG
# UniProt P29322, sequence (whole entry, looked up): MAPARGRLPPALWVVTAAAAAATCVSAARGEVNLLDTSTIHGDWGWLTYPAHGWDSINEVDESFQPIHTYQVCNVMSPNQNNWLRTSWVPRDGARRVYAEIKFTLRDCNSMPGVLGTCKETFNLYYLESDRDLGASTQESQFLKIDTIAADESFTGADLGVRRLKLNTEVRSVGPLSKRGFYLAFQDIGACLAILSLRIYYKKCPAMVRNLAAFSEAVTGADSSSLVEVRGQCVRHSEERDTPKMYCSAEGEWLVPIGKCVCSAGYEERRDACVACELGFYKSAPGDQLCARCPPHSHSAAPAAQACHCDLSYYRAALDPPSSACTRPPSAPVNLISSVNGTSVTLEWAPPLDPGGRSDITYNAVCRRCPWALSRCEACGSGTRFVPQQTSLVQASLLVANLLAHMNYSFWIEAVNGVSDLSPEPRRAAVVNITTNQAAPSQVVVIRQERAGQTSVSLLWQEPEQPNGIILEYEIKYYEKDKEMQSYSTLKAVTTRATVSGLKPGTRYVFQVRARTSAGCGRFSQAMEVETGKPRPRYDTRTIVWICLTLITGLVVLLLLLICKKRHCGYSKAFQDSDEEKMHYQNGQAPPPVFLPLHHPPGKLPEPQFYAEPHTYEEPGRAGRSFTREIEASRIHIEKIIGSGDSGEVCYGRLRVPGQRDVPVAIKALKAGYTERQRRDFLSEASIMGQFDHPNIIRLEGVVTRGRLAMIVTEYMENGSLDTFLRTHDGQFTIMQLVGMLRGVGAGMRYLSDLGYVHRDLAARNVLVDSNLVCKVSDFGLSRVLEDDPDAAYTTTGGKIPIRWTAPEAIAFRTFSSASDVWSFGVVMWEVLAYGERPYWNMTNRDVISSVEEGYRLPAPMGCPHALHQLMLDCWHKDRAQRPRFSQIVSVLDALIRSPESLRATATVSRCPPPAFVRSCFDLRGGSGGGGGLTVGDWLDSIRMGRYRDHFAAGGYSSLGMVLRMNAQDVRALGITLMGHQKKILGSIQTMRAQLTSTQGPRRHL
# UniProt Q70EK9, sequence (whole entry, looked up): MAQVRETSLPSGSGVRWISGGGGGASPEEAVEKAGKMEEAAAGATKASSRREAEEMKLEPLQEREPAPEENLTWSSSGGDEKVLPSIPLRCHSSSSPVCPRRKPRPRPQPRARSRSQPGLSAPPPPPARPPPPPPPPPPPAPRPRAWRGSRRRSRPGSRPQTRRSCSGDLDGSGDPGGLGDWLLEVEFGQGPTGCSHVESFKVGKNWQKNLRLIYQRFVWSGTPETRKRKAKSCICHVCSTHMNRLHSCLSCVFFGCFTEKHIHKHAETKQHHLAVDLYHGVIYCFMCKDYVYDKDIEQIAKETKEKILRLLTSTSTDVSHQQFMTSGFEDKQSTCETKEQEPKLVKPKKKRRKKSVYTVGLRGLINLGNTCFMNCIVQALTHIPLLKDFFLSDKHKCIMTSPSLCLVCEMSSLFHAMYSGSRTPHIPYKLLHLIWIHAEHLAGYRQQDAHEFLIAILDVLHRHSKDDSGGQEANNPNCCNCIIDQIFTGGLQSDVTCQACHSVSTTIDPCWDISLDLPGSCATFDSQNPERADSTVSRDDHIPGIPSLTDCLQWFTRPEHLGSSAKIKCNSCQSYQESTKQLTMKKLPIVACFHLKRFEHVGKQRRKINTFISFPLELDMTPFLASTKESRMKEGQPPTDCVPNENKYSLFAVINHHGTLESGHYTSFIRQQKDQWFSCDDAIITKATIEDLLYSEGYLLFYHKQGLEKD
# UniProt Q969F8, sequence (whole entry, unmodified, looked up): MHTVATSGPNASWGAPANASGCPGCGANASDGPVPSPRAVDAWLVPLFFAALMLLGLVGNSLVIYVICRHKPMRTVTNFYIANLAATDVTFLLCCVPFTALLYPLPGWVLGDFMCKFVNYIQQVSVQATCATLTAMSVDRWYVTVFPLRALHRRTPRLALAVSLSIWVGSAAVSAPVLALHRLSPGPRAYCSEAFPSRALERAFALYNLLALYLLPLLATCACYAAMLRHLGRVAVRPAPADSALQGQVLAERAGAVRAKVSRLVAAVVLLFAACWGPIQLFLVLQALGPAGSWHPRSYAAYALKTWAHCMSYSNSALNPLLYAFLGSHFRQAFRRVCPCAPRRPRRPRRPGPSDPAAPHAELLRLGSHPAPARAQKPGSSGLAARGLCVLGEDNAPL
# UniProt Q00537, sequence (whole entry, looked up): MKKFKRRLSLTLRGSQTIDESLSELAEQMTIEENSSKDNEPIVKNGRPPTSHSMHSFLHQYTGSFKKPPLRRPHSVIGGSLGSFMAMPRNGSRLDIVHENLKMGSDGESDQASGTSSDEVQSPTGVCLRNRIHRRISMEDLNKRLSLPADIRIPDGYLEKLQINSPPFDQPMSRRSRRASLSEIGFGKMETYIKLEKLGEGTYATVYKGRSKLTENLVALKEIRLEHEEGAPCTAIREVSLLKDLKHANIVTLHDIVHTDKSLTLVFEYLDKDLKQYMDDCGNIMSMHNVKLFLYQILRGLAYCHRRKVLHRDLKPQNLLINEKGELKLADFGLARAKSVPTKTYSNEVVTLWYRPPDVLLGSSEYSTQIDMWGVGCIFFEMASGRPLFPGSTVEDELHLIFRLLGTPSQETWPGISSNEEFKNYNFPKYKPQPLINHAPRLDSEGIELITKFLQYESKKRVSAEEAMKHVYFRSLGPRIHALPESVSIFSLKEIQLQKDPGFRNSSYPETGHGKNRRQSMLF
# UniProt Q13153, sequence (whole entry, looked up): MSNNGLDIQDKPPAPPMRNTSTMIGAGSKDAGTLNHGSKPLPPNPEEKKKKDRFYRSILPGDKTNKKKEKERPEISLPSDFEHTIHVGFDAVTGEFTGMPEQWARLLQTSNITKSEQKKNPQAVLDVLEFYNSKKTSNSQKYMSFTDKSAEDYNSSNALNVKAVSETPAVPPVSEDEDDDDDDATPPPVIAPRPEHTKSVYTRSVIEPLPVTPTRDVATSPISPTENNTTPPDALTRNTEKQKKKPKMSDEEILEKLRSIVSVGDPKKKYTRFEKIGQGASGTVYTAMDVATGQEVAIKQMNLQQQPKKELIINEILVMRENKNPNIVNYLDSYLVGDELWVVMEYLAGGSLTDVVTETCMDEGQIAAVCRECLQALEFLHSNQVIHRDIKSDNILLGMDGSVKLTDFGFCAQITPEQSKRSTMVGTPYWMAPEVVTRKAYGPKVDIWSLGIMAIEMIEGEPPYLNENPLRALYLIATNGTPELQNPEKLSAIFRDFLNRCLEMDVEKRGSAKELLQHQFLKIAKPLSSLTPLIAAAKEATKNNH
# UniProt P49841, sequence (whole entry, looked up): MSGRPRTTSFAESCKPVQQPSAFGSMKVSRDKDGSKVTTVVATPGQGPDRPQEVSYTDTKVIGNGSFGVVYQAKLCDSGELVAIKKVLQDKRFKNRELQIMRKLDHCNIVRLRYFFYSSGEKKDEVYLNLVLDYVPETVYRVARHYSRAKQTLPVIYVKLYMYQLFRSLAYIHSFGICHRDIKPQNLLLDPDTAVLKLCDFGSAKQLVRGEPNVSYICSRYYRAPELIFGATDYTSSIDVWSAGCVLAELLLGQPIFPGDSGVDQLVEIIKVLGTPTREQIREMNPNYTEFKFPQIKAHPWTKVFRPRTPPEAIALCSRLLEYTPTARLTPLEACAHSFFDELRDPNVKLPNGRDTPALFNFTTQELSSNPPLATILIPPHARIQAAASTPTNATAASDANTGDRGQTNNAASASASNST
SMILES,target,test,test system,conditions,measurement,value
CC[C@H](C)[C@H](NC(=O)[C@H](CCC(N)=O)NC(=O)[C@H](CCCNC(=N)N)NC(=O)[C@H](CO)NC(=O)[C@H](Cc1c[nH]cn1)NC(=O)[C@@H]1CCCN1C(=O)[C@H](C)NC(=O)[C@H](CO)NC(=O)[C@H](CC(C)C)NC(=O)CNC(=O)[C@@H]1CCCN1C(=O)[C@H](CCC(N)=O)NC(=O)[C@H](CCC(N)=O)NC(=O)[C@H](CCCNC(=N)N)NC(=O)[C@H](CO)NC(=O)CNC(=O)[C@H](CO)NC(=O)[C@H](CO)NC(=O)[C@H](CCC(=O)O)NC(=O)[C@@H]1CCCN1C(=O)[C@@H]1CCCN1C(=O)[C@@H]1CCCN1C(=O)[C@H](CO)NC(=O)[C@H](CC(C)C)NC(=O)[C@H](CO)NC(=O)[C@@H](NC(=O)CN)[C@@H](C)O)C(=O)N1CCC[C@H]1C(=O)N[C@@H](C)C(=O)N1CCC[C@H]1C(=O)N[C@@H](CCC(N)=O)C(=O)NCC(=O)N[C@@H](C)C(=O)N[C@H](C(=O)N[C@@H](CC(C)C)C(=O)N[C@H](C(=O)N[C@@H](CCC(N)=O)C(=O)N[C@@H](CCCNC(=N)N)C(=O)N[C@@H](CCC(=O)O)C(=O)N[C@@H](CCCCN)C(=O)N[C@@H](CC(=O)O)C(=O)N[C@@H](CC(C)C)C(=O)N1CCC[C@H]1C(=O)N[C@@H](CC(N)=O)C(=O)N[C@@H](Cc1ccc(O)cc1)C(=O)N[C@@H](CC(N)=O)C(=O)N[C@@H](Cc1c[nH]c2ccccc12)C(=O)N[C@@H](CC(N)=O)C(=O)N[C@@H](CO)C(=O)N[C@@H](Cc1ccccc1)C(=O)NCC(=O)N[C@@H](CC(C)C)C(=O)N[C@@H](CCCNC(=N)N)C(=O)N[C@@H](Cc1ccccc1)C(N)=O)C(C)C)C(C)C,"KiSS-1 receptor (KISS1R, Homo sapiens, UniProt Q969F8, R297A)","inositol phosphate, agonist",HEK293,,Emax,98.2%
O=C(CC(O)(CC(=O)OCc1ccc(OC2OC(CO)C(O)C(O)C2O)cc1)C(=O)OCc1ccc(OC2OC(CO)C(O)C(O)C2O)cc1)OCc1ccc(OC2OC(CO)C(O)C(O)C2O)cc1 (stereo not drawn),CTSL,"enzyme activity, inhibitor",,100 µM,remaining activity,102%
Cc1[nH]c(C)c(S(N)(=O)=Nc2ccc(C(F)(F)F)c(Cl)c2)c1C(=O)N1CCC(F)(F)C1 (stereo not drawn),DRD3,"β-arrestin recruitment, agonist",,90 min,Emax,95%
C=CC(=O)N1CCC(COCC(=O)N2CCN(c3nc(-c4cnc(N)nc4C(F)F)nc(N4CCOC[C@@H]4C)n3)CC2)CC1,"Mitogen-activated protein kinase kinase kinase 1 (MAP3K1, Homo sapiens, UniProt Q13233)","binding, competition with immobilised ligand",,1 µM,remaining binding,100%
Nc1ncnc2occ(-c3ccc(NC(=O)Nc4cc(C(F)(F)F)ccc4F)cc3)c12,"Tyrosine-protein kinase ABL1, phosphorylated (ABL1, Homo sapiens, UniProt P00519, T315I)","cell-free assay, inhibitor",,20 µM,remaining signal,3.3%
CC(=O)CCc1ccccc1,CTSL,"enzyme activity, inhibitor",,100 µM,remaining activity,95.4%
COc1cc(-c2cncc3c2CN(C)Cc2cc(N4CCNCC4)ccc2-3)cc(OC)c1OC,"Serine/threonine-protein kinase 32C (STK32C, Homo sapiens, UniProt Q86UX6)","enzyme activity, inhibitor",,1 µM,remaining activity,131%
CC1OC(OCC2OC(OCCc3ccc(O)c(O)c3)C(O)C(O)C2OC(=O)/C=C/c2ccc(O)c(O)c2)C(O)C(O)C1O (stereo not drawn),CTSL,"enzyme activity, inhibitor",,100 µM,remaining activity,76.8%
Cc1cc2c(cc1N1C(=O)c3cccc4c(Cl)ccc(c34)C1=O)n(C)c(=O)n2C,"Bromodomain-containing protein 3, BD1 (BRD3, Homo sapiens, UniProt Q15059)","thermal stability, DSF",,10 µM,ΔTm,-0.3 °C
CC1OC(OC2C(CO)OC(OCC3OC(OC(=O)C45CCC(C)(C)CC4C4=CCC6C7(C)CCC(OC8OCC(O)C(O)C8OC8OC(C)C(O)C(O)C8O)C(C)(CO)C7CCC6(C)C4(C)CC5)C(O)C(O)C3O)C(O)C2O)C(O)C(O)C1O (stereo not drawn),CTSL,"enzyme activity, inhibitor",,100 µM,remaining activity,164%
O=C1CSC(=S)N1NC(=S)SSC(=S)NN1C(=O)CSC1=S,"Tyrosine-protein phosphatase non-receptor type 22 (PTPN22, Homo sapiens, UniProt Q9Y2R2)","enzyme activity, inhibitor, fluorescence",,,kinact,0.004 s⁻¹
CNc1ncc2c(/C=C/C(=O)N3CCC(OC)CC3)nn(Cc3cccc(C(F)(F)F)c3)c2n1,"Cyclin-dependent kinase 17, with p35 (CDK17, Homo sapiens, UniProt Q00537)","enzyme activity, inhibitor, radiometric",,1 µM,remaining activity,101%
CC[C@H](C)[C@H](NC(=O)[C@H](CCC(N)=O)NC(=O)[C@H](CC(C)C)NC(=O)[C@H](CCSC)NC(=O)[C@H](CCCCN)NC(=O)[C@H](CO)NC(=O)[C@H](CO)NC(=O)[C@H](CCSC)NC(=O)[C@H](CC(C)C)NC(=O)[C@H](CC(N)=O)NC(=O)[C@@H](NC(=O)[C@@H](NC(=O)[C@H](CO)NC(=O)[C@H](CC(C)C)NC(=O)[C@H](CS)NC(=O)[C@H](CCCNC(=N)N)NC(=O)[C@H](CC(=O)O)NC(=O)[C@H](Cc1c[nH]c2ccccc12)NC(=O)[C@H](Cc1ccccc1)NC(=O)[C@H](C)NC(=O)[C@H](CCC(=O)O)NC(=O)[C@@H](N)CCCCN)C(C)C)[C@@H](C)CC)C(=O)N[C@@H](CC(N)=O)C(=O)N[C@@H](C)C(=O)O,"Glycogen synthase kinase-3 beta (GSK3B, Homo sapiens, UniProt P49841)","enzyme activity, inhibitor, radiometric",,"10 µM, 20 min",remaining activity,99%
Cc1[nH]c(C)c(S(=O)(=O)Nc2cc(Cl)c(C(F)(F)F)c(Cl)c2)c1C(=O)N1CCC(F)(F)C1,DRD3,"β-arrestin recruitment, agonist",,90 min,Emax,95%
CCCCCCCCCCCCCCCCCCCC(=O)O,"Ubiquitin carboxyl-terminal hydrolase 51 (USP51, Homo sapiens, UniProt Q70EK9)","enzyme activity, inhibitor",,5 µM,inhibition,23%
CCC(C)n1ncn(-c2ccc(N3CCN(c4ccc(OCC5COC(Cn6cncn6)(c6ccc(Cl)cc6Cl)O5)cc4)CC3)cc2)c1=O (stereo not drawn),CTSL,"enzyme activity, inhibitor",,100 µM,remaining activity,66.4%
CCCCC(=O)Nc1ccc(-c2ccc3ncn(CCC)c(=O)c3c2)cn1,"Ephrin type-A receptor 8 (EPHA8, Homo sapiens, UniProt P29322)","binding, competition with immobilised ligand",,0.5 µM,remaining binding,100%
CC1OC(OCC2OC(OCCc3ccc(O)c(O)c3)C(O)C(OC3OC(C)C(O)C(O)C3O)C2OC(=O)/C=C/c2ccc(O)c(O)c2)C(O)C(O)C1O (stereo not drawn),CTSL,"enzyme activity, inhibitor",,100 µM,remaining activity,111%
Cc1cc([C@@H](C)Nc2ccccc2C(=O)O)c2nc(N3CCC(F)(F)CC3)c(C#N)c(=O)n2c1,"Serine/threonine-protein kinase PAK 1 (PAK1, Homo sapiens, UniProt Q13153)","binding, competition with immobilised ligand",,1 µM,remaining binding,100%
N=C1NCC[C@H]([C@@H]2NC(=O)/C(=C/NC(N)=O)NC(=O)[C@H](CNC(=O)CC(N)CCCN)NC(=O)[C@H](CO)NC(=O)[C@@H](N)CNC2=O)N1 (stereo partly drawn),CTSL,"enzyme activity, inhibitor",,100 µM,remaining activity,77.4%
C1=C/COCc2cc(ccc2OCCN2CCCC2)Nc2nccc(n2)-c2cccc(c2)COC/1,"Epidermal growth factor receptor (EGFR, Homo sapiens, UniProt P00533, del746-750)",binding,,0.1 µM,remaining binding,71%

# Repeated from above:
SMILES,target,test,test system,conditions,measurement,value
CCCCCCCCCCCCCCCCCCCC(=O)O,"Ubiquitin carboxyl-terminal hydrolase 51 (USP51, Homo sapiens, UniProt Q70EK9)","enzyme activity, inhibitor",,5 µM,inhibition,23%
CCC(C)n1ncn(-c2ccc(N3CCN(c4ccc(OCC5COC(Cn6cncn6)(c6ccc(Cl)cc6Cl)O5)cc4)CC3)cc2)c1=O (stereo not drawn),CTSL,"enzyme activity, inhibitor",,100 µM,remaining activity,66.4%
CCCCC(=O)Nc1ccc(-c2ccc3ncn(CCC)c(=O)c3c2)cn1,"Ephrin type-A receptor 8 (EPHA8, Homo sapiens, UniProt P29322)","binding, competition with immobilised ligand",,0.5 µM,remaining binding,100%
